Experimental data pooled from the literature.
Compare with care: the assays were run in different laboratories. Several values in a cell are separate wells, animals, samples, runs or records. Values after ≈ are worked out from the molar mass of the structure shown.

The metabolic activity of `NS(=O)(=O)c1ccc(NN=C2C(=O)Nc3ccc(C(=O)NCc4ccncc4)cc32)cc1` is reported as ≥ 80% (Aspergillus fumigatus; 20 µM; baseline: untreated).
For `Cc1c2c(nn1C)CSCc1cc(n(C)n1)CSc1cc(c3ccccc3c1)OCCCc1c(C(=O)O)n(C)c3c-2c(Cl)ccc13`, the fold change was 136 (Staphylococcus aureus; label-free quantitative proteomics, refers to: SAOUHSC_01832 protein; SA113; concentration not given; baseline: untreated control).
`CNC(=O)c1cccc(-c2ccc3c(N4CCOC[C@@H]4C)nc(N4CCOC[C@@H]4C)nc3n2)c1` has a metabolic activity of ≥ 80% (Aspergillus fumigatus; 20 µM; baseline: untreated).
`CCn1c(=O)c(-c2ccc(Cl)cc2Cl)cc2cnc(Nc3ccc(N4CCNCC4)c(F)c3)nc21` has an inhibition of 47% (murine hepatitis virus; viral replication, nanoluciferase reporter; DBT; 1 µM; baseline: DMSO vehicle).
For `CS(=O)(=O)CCCn1c(Cn2c(=O)n(CC(F)(F)F)c3ccncc32)cc2cc(Cl)ccc21`, “LS mean viral load change” read -3.06 log10 copies/mL (respiratory syncytial virus; RT-qPCR; hospitalized infants 1-24 months, nasal swab; oral, 9, 6 or 5 mg/kg daily, day 5, high dose by age cohort; baseline: baseline).
`Nc1ncnc2c1ncn2[C@@H]1O[C@@H]2COP(=O)(O)O[C@H]3[C@@H](O)[C@H](n4cnc5c(=O)[nH]cnc54)O[C@@H]3COP(=O)(O)O[C@H]2[C@H]1O` gave a fold enrichment of 8.91 (Zika virus; RNA sequencing, refers to: degradation, collagen, R-HSA-1442490; HFF-1 cells; concentration not given, downregulated pathway; baseline: ZIKV-infected untreated cells).
With `CNC(=O)c1ccc(Nc2ncc(C(F)(F)F)c(NCc3nccnc3N(C)S(C)(=O)=O)n2)cc1` the inhibition was 19% (murine hepatitis virus; viral replication, nanoluciferase reporter; DBT; 1 µM; baseline: DMSO vehicle).
`C=C(CCC=C(C)C)[C@H]1CC[C@H]2[C@@H]3CC=C4C[C@@H](O)CC[C@]4(C)[C@H]3CC[C@]12C` — result for antileishmanial activity: “inactive” (Leishmania mexicana; propidium iodide flow cytometry; promastigotes; concentration not given, 48 h).
`O=[N+]([O-])c1cc2c(ccc3c2ccc2cc([N+](=O)[O-])oc23)o1` has an MIC90 of 0.25 µg/mL (≈ 0.838 µM) (Mycobacterium avium subsp. hominissuis; REMA; ATCC 25291).
With `CC1(C)CC(=O)c2c(C(F)(F)F)nn(-c3ccc(C(N)=O)c(N[C@H]4CC[C@H](O)CC4)c3)c2C1` the selectivity index was > 250 (human alphaherpesvirus 1; K26 GFP, 3D skin equivalent, air-liquid; baseline: CC50 over IC50).
For `Cc1ccc(C(=O)Nc2cccc(C(F)(F)F)c2)cc1Nc1nc(-c2cccnc2)nc2c1cnn2C`, the inhibition was 57% (murine hepatitis virus; viral replication, nanoluciferase reporter; DBT; 1 µM; baseline: DMSO vehicle).
The MIC of `C[C@H](NC(=O)[C@H](CCCNC(=N)N)NC(=O)[C@H](Cc1c[nH]c2ccccc12)NC(=O)[C@H](CCCNC(=N)N)NC(=O)[C@H](Cc1c[nH]c2ccccc12)NC(=O)[C@H](Cc1c[nH]c2ccccc12)NC(=O)[C@H](Cc1c[nH]c2ccccc12)NC(=O)[C@H](CCCNC(=N)N)NC(=O)[C@H](Cc1c[nH]c2ccccc12)NC(=O)[C@H](CCCNC(=N)N)NC(=O)CN)C(N)=O` is reported as 32 µM (≈ 54.4 µg/mL) (Candida albicans; broth microdilution; CGMCC 2.209, RPMI 1640-MOPS; 48 h, 30 °C, together with: CaCl2 2 mM).
`CC(=O)Nc1cccc(-n2c(=O)n(C3CC3)c(=O)c3c(Nc4ccc(I)cc4F)n(C)c(=O)c(C)c32)c1` has an inhibition of 1% (murine hepatitis virus; viral replication, nanoluciferase reporter; DBT; 1 µM, 10 h; baseline: DMSO vehicle).
With `COc1ccc2c(ccc3oc([N+](=O)[O-])cc32)c1` the MIC90 was 1.5 µg/mL (≈ 6.17 µM) (Enterobacter cloacae; REMA).
`CC(=O)NC[C@H]1CN(c2ccc(N3CCOCC3)c(F)c2)C(=O)O1` has an MIC90 of 2 µg/mL (≈ 5.93 µM) (Enterococcus faecalis and Enterococcus faecium).
The MIC of `CC(=O)N1CCN(c2ccc(OCC3COC(Cn4ccnc4)(c4ccc(Cl)cc4Cl)O3)cc2)CC1` (centres unmarked) is reported as 8 µM (≈ 4.25 µg/mL) (Candida parapsilosis; CGMCC 2.399; 48 h, 30 °C).
`CN(c1ncccc1CNc1nc(Nc2ccc3c(c2)CC(=O)N3)ncc1C(F)(F)F)S(C)(=O)=O` gave an inhibition of 34% (murine hepatitis virus; viral replication, nanoluciferase reporter; DBT; 1 µM; baseline: DMSO vehicle).
Under “log2 fold change”, `CCCC(CCC)C(=O)Nc1ccccc1O` is recorded as 0.011 (Artemia franciscana; LC-MS/MS metabolomics, refers to: 1-aminocyclopropanecarboxylic acid; larvae; concentration not given, 48 h; baseline: vehicle).
The MIC of `N=C(N)NCCC[C@H](NC(=O)[C@H](Cc1c[nH]c2ccccc12)NC(=O)[C@H](CCCNC(=N)N)NC(=O)[C@H](Cc1c[nH]c2ccccc12)NC(=O)[C@H](Cc1c[nH]c2ccccc12)NC(=O)[C@H](Cc1c[nH]c2ccccc12)NC(=O)[C@H](CCCNC(=N)N)NC(=O)[C@H](Cc1c[nH]c2ccccc12)NC(=O)[C@@H](N)CCCNC(=N)N)C(=O)N[C@@H](Cc1ccccc1)C(N)=O` is reported as 8 µM (≈ 13.8 µg/mL) (Candida albicans; broth microdilution; CGMCC 2.209, RPMI 1640-MOPS; 48 h, 30 °C, together with: FeCl3 4 µM).
With `Cn1cc(-c2ccc3occ(-c4cccc(-c5ccncc5)c4)c3n2)cn1` the inhibition was 2% (murine hepatitis virus; viral replication, nanoluciferase reporter; DBT; 1 µM, 10 h; baseline: DMSO vehicle).
The combination index of `COC(=O)N[C@H](C(=O)N1CCC[C@H]1c1ncc(-c2ccc(-c3ccc(-c4cnc([C@@H]5CCCN5C(=O)[C@@H](NC(=O)OC)C(C)C)[nH]4)cc3)cc2)[nH]1)C(C)C` is reported as 0.73 and 0.63 (hepatitis C virus; HCV replicon; 75% effect level, together with: IFN-α, ratio 1:1).
The inhibition of `CN1CCN(Cc2ccc(Nc3ncc(Cl)c(Nc4ccccc4S(=O)(=O)N(C)C)n3)cc2)CC1` is reported as 30% (murine hepatitis virus; viral replication, nanoluciferase reporter; DBT; 1 µM, 10 h; baseline: DMSO vehicle).
`CC(=O)O[C@H]1C[C@H](O[C@H]2[C@@H](O)C[C@H](O[C@H]3[C@@H](O)C[C@H](O[C@H]4CC[C@@]5(C)[C@H](CC[C@@H]6[C@@H]5C[C@@H](O)[C@]5(C)[C@@H](C7=CC(=O)OC7)CC[C@]65O)C4)O[C@@H]3C)O[C@@H]2C)O[C@H](C)[C@H]1O[C@@H]1O[C@H](CO)[C@@H](O)[C@H](O)[C@H]1O` gave an IC50 of 90 nM (human alphaherpesvirus 1; live-cell GFP imaging; primary human keratinocytes, K26 GFP).
